# Experimental data gathered from unrelated publications.
# Numbered parts are unrelated; each lists some results of a single study.
# Sequence of UniProt P50613 (whole entry, looked up): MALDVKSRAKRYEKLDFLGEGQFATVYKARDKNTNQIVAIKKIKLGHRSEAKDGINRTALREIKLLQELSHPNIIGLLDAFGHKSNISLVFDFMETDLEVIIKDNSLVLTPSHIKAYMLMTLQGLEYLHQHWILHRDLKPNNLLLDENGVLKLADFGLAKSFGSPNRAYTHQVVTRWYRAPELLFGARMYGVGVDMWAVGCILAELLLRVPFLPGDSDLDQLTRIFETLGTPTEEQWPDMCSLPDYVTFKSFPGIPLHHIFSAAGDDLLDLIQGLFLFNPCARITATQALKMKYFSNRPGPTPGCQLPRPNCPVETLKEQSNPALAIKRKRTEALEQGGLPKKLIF
# Sequence of UniProt Q9NRH2 (whole entry, looked up): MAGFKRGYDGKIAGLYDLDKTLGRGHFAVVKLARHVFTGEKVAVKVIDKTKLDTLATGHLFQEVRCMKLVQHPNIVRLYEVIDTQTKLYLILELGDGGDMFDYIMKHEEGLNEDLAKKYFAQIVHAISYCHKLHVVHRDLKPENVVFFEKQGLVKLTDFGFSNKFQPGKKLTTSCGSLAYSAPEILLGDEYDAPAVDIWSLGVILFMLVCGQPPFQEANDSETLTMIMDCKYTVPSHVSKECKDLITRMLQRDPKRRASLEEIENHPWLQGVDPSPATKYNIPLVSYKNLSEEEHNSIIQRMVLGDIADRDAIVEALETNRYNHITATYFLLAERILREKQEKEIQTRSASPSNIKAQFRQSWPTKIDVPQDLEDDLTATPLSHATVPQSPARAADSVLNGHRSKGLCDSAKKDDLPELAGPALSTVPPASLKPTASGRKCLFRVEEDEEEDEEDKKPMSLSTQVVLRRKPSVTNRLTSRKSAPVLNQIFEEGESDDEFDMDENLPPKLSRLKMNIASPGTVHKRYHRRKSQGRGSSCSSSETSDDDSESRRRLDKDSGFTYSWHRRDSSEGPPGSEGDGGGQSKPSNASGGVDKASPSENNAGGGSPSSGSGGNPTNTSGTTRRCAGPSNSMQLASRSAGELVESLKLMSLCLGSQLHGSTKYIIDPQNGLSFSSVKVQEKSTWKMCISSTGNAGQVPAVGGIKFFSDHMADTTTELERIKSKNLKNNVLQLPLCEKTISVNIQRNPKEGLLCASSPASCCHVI
# Sequence of UniProt Q9Y243 (whole entry, looked up): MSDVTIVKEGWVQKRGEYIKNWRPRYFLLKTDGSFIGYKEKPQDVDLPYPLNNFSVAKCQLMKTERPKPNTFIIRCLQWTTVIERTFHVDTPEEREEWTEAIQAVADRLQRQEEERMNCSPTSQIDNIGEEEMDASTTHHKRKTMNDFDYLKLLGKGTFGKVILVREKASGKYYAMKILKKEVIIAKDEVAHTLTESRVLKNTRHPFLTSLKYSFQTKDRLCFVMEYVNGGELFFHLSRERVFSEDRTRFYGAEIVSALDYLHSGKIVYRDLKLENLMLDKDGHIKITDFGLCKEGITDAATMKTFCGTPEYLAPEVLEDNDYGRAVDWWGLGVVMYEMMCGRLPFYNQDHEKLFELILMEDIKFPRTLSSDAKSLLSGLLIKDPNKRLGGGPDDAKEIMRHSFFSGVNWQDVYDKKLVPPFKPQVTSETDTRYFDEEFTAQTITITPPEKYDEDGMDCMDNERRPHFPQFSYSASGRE
# Sequence of UniProt Q32MK0 (whole entry, looked up): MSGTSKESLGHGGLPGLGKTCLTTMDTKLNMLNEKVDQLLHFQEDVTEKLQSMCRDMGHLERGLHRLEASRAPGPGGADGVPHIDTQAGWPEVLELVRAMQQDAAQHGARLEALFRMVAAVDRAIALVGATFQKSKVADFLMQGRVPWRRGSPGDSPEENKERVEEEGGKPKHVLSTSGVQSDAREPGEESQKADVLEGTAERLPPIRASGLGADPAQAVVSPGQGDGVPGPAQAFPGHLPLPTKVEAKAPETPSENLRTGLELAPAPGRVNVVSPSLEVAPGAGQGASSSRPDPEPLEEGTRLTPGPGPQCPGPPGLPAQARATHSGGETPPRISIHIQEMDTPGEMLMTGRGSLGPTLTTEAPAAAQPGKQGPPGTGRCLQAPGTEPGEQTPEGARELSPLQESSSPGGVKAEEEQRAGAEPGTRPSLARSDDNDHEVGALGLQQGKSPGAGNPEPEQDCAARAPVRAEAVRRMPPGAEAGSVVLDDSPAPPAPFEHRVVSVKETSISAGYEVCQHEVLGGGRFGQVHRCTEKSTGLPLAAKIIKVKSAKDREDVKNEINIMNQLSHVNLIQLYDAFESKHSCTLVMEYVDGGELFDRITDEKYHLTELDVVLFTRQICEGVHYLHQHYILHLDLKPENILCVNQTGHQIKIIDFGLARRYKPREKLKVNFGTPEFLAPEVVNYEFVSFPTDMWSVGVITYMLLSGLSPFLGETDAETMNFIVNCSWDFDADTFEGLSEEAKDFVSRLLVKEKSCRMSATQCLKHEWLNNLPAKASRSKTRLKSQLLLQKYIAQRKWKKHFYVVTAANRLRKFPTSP
# Sequence of UniProt Q9H2K8 (whole entry, looked up): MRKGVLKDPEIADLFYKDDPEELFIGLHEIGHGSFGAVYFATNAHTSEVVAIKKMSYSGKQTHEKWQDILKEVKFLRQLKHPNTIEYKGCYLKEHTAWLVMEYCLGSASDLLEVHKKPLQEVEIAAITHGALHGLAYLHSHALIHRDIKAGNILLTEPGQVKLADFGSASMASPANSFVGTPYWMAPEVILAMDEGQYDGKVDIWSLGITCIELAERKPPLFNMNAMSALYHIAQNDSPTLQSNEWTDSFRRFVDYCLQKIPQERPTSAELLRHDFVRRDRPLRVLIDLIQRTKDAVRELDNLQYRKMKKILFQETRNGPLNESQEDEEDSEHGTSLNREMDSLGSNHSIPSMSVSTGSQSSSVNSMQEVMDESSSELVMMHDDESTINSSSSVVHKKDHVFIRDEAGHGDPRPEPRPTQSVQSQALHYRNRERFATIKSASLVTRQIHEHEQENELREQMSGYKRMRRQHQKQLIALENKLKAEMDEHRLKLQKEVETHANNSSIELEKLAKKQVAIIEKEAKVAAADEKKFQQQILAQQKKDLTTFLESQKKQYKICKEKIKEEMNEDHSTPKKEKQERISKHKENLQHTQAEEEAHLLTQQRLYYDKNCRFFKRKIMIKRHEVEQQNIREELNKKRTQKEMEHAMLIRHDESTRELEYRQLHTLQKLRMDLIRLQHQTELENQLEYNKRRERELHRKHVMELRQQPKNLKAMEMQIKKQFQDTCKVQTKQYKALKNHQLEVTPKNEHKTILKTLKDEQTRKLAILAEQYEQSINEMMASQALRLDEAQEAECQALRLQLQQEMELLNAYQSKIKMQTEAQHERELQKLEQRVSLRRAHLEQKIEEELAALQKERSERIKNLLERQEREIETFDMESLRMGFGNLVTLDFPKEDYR
# Sequence of UniProt Q9P289 (whole entry, looked up): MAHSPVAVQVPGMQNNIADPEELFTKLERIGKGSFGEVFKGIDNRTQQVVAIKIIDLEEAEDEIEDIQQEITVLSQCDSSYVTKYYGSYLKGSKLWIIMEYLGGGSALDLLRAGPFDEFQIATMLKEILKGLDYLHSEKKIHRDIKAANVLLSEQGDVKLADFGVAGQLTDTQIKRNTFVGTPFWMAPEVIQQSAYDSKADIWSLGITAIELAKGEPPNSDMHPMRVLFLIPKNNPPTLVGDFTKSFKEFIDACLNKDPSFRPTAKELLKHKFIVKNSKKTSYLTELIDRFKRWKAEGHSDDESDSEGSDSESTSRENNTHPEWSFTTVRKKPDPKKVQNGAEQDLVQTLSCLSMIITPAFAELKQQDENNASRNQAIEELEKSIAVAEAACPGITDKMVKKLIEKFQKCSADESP
# Sequence of UniProt Q92772 (whole entry, looked up): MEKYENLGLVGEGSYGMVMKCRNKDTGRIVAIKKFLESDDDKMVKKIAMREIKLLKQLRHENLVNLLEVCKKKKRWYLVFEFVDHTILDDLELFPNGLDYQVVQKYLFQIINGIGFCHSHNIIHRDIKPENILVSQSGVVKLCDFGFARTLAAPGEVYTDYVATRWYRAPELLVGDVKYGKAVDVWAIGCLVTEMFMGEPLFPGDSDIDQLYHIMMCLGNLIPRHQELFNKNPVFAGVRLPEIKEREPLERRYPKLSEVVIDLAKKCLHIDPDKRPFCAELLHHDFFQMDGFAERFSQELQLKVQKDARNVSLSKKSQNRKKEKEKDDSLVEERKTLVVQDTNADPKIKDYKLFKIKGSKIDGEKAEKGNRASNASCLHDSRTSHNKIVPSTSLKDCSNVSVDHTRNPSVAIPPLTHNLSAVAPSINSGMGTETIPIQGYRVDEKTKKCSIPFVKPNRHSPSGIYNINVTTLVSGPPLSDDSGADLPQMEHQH
# Sequence of UniProt Q9Y388 (15-135, looked up): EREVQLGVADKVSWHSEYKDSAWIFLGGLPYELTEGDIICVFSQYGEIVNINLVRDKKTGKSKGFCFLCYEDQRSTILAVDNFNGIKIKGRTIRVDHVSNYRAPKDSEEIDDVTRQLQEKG

# Block 1 — method: universal PBM; molecule type: double-stranded DNA, one strand shown; sample: in vitro; concentration: not given; reading: higher = stronger binding
# Target: Sal-like protein 4, full length isoform B (SALL4, Homo sapiens, UniProt Q9UJQ4-2, residues 1-616)
# Notes: 8-mer, flanks averaged, mean of replicates
# Residues (chain): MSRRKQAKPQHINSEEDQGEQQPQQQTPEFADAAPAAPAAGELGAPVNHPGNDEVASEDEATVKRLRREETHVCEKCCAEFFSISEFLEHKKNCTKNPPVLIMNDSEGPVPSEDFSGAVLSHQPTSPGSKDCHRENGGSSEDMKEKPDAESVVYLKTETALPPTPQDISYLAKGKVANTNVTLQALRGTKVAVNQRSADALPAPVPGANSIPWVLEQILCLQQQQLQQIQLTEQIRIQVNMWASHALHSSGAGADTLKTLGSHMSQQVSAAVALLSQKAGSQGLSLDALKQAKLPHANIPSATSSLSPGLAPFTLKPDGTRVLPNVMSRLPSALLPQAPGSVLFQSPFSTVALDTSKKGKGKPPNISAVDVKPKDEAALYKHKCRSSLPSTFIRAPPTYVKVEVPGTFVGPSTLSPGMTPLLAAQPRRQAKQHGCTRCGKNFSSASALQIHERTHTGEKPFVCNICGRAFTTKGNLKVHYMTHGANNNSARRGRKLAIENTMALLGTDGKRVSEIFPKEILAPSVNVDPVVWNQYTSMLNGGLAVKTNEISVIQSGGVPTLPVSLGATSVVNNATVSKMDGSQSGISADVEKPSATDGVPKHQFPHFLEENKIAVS
Sequence,E-score
CACTCCAA,-0.0417
CCACCTTA,0.00623
CGGGCTGC,-0.292
CTCACGAC,-0.209
CCAAATAG,0.0616
CTAGAAGA,0.0374
GGCGTTAA,-0.0772
CTCGCTAA,-0.0818

# Block 2 — observed: cell-free assay; method: competition with immobilised ligand; concentration: 1 µM
# Structure (SMILES): O=C(NCc1ncc(C(F)(F)F)cc1Cl)c1ccc2c(c1)C1(CCS(=O)(=O)CC1)[C@H](C1CC1)N2S(=O)(=O)c1ccc(F)cc1
target,remaining binding
"Cyclin-dependent kinase 7 (CDK7, Homo sapiens, UniProt P50613)",64%
"RAC-gamma serine/threonine-protein kinase (AKT3, Homo sapiens, UniProt Q9Y243)",100%
"SNF-related serine/threonine-protein kinase (SNRK, Homo sapiens, UniProt Q9NRH2)",77%
"Cyclin-dependent kinase-like 2 (CDKL2, Homo sapiens, UniProt Q92772)",100%
"Myosin light chain kinase (MYLK3, Homo sapiens, UniProt Q32MK0)",79%
"Non-receptor tyrosine-protein kinase TYK2, JH1 (TYK2, Homo sapiens, UniProt P29597)",92%
"Serine/threonine-protein kinase 26 (STK26, Homo sapiens, UniProt Q9P289)",100%
"Epidermal growth factor receptor (EGFR, Homo sapiens, UniProt P00533, T790M)",100%
"Serine/threonine-protein kinase TAO3 (TAOK3, Homo sapiens, UniProt Q9H2K8)",99%
"Cyclin-dependent kinase 18 (CDK18, Homo sapiens, UniProt Q07002)",100%
"Calcium/calmodulin-dependent protein kinase type II subunit beta (CAMK2B, Homo sapiens, UniProt Q13554)",98%
"Protein-tyrosine kinase 6 (PTK6, Homo sapiens, UniProt Q13882)",100%
"Ribosomal protein S6 kinase alpha-6, N-terminal kinase domain (RPS6KA6, Homo sapiens, UniProt Q9UK32)",78%

# Block 3 — observed: enzyme activity; mode: inhibitor; concentration: 0.5 µM; relative to: control
# Target: Protein kinase C beta type, isoform beta-I (PRKCB, Homo sapiens, UniProt P05771)
# Sequence of UniProt P05771 (whole entry, looked up): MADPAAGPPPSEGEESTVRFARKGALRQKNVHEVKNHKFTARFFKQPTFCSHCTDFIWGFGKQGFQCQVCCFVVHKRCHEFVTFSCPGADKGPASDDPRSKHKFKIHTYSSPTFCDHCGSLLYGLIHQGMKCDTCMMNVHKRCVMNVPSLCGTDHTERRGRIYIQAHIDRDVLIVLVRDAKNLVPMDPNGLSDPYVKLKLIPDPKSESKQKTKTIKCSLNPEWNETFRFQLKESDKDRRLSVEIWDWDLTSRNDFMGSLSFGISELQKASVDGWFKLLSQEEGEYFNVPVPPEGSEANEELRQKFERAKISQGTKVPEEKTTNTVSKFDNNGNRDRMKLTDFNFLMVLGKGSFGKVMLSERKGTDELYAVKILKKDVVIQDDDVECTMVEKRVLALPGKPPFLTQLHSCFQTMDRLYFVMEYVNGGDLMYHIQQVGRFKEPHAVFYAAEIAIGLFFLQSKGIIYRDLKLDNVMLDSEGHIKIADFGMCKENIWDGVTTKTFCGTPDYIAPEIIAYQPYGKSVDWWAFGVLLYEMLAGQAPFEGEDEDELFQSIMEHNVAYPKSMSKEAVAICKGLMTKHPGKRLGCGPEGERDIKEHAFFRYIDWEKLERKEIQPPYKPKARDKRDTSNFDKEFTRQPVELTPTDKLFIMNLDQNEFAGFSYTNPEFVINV
Structure (SMILES),remaining activity [%]
O=C(CCCc1ccc(-c2ccccc2F)cc1)Nc1ccc(O)cc1,93.4
COc1ccc(OC)c2c(=S)c3ccccc3[nH]c12,101
CC(C)[C@H](CO)Nc1nc(Nc2cc(N)cc(Cl)c2)c2ncn(C(C)C)c2n1,98.8
COc1cc2ncnc(Nc3ccc(F)c(Cl)c3)c2cc1OCCCN1CCOCC1,95
O=C(Nc1cccc(Nc2cc(Nc3cccc(C(F)(F)F)c3)ncn2)c1)C1CC1,93.2
Cc1nc(-c2ccccc2)c(-c2ccncc2)o1,95.2
N#CC(C#N)=C(N)/C(C#N)=C/c1ccc(O)cc1,114
CN(C)c1ccc(C=C2C(=O)Nc3ccccc32)cc1,96.1
O=C1NC(=O)c2cc(Nc3ccc(F)cc3)c(Nc3ccc(F)cc3)cc21,28.2
N#CCCc1ccc2c(c1)-c1[nH]c3ccc([N+](=O)[O-])cc3c1CC(=O)N2,97.4
Nc1ccc2ncnc(NCCc3ccc(Oc4ccccc4)cc3)c2c1,96.3
Cn1c2ccccc2c2c3c(c4c5ccccc5n(CCC#N)c4c21)CNC3=O,18.7
Oc1ccc(-c2nc(-c3ccncc3)c(-c3ccc(F)cc3)[nH]2)cc1,63.7
O=C1NC(=O)C(c2cn(CCCn3ccnc3)c3ccccc23)=C1Nc1ccccc1,9.78
Nc1[nH]nc2nc3ccccc3nc12,103
O=C(O)c1ccc2c3c1cccc3c(=O)n1c3ccccc3nc21,89.8

# Other studies, line by line
Sequence,target,test,system,conditions,scale,endpoint,value
AAAAAAAA (biotin),"RNA-binding motif protein, X-linked 2, RRM domain (RBMX2, Homo sapiens, UniProt Q9Y388, residues 15-135)",protein domain microarray,"RNA, in vitro","not given, poly(A) 8-mer RNA, whole probe, immobilized GST-fusion domains, most near background","relative to: GST loading signal, higher = stronger binding",signal ratio,0.106

# Some of these lines once more (block 3):
Structure (SMILES),remaining activity [%]
COc1ccc(OC)c2c(=S)c3ccccc3[nH]c12,101
N#CCCc1ccc2c(c1)-c1[nH]c3ccc([N+](=O)[O-])cc3c1CC(=O)N2,97.4
O=C1NC(=O)C(c2cn(CCCn3ccnc3)c3ccccc23)=C1Nc1ccccc1,9.78
O=C(Nc1cccc(Nc2cc(Nc3cccc(C(F)(F)F)c3)ncn2)c1)C1CC1,93.2
